{"data": "Results pooled from the literature", "PPARG": "Peroxisome proliferator-activated receptor gamma (PPARG, Homo sapiens, UniProt P37231)", "note": "Compare with care: the assays were run in different laboratories. ± marks the error that the study gave.", "sequence of UniProt P37231 (whole entry, looked up)": "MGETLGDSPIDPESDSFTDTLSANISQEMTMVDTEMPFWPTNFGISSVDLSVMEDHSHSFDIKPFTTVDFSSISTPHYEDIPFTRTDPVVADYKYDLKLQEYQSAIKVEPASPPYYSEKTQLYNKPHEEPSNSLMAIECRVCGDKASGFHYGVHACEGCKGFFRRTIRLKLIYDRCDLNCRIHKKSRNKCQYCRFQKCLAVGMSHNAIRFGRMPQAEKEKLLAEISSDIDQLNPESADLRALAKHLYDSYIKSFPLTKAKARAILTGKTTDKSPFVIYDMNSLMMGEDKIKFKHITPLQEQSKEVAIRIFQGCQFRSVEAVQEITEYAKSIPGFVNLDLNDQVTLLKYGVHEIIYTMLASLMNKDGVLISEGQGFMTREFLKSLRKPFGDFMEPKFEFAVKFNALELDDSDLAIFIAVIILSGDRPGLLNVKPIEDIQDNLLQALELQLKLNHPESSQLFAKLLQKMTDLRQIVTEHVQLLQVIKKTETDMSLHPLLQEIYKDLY", "sequence of UniProt P11712 (whole entry, looked up)": "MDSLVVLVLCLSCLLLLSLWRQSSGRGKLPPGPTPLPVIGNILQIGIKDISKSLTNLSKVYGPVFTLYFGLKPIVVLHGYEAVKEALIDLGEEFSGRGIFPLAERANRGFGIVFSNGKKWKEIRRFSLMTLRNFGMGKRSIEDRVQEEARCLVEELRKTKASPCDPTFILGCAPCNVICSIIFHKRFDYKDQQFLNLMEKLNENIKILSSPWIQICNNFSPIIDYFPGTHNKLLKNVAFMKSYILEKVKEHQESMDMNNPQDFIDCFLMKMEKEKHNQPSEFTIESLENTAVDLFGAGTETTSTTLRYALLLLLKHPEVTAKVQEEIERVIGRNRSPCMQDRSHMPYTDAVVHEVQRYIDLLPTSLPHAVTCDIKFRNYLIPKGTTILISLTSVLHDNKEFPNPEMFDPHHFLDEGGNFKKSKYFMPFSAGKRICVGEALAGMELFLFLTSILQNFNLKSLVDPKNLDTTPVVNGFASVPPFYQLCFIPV"}
{"Structure (SMILES)": "CNC(=O)C1CCCN(C(=O)C2CC3CCC2N3C(=O)[C@@H]2C[C@@H](O)CN2C(=O)NCc2cccc(Cl)c2F)C1 (mixture of isomers)", "target or system": "Cytochrome P450 2C9 (CYP2C9, Homo sapiens, UniProt P11712)", "test": "enzyme activity, inhibitor", "test system": "human, liver microsomes", "measurement": "IC50", "value": "> 50000 nM"}
{"Structure (SMILES)": "O=C(Nc1cnccc1-c1ccc([18F])cc1)c1ccnc(NC(=O)C2CC2)c1", "test system": "FVB/NJ mouse, both sexes, brain", "conditions": "intravenous, 15 min", "measurement": "SUV", "value": 0.24}
{"Structure (SMILES)": "Cc1c(Cc2ccc(OC(C)C(=O)O)cc2)c2ccc(C(=O)N[C@@H](C)c3ccc(C(C)(C)C)cc3)cc2n1C (stereo partly shown)", "target or system": "PPARG", "test": "ligand displacement, TR-FRET", "measurement": "IC50", "value": "401 nM"}
{"Structure (SMILES)": "CCN(CC)CC#CCNc1ccnc2cc(Cl)ccc12", "target or system": "Salmonella typhimurium", "test": "mini-Ames test", "test system": "TA1535", "conditions": "500.0 µg/well, without S9", "measurement": "revertants per well", "value": 3}
{"Structure (SMILES)": "CC(C)OCCOCc1ccc(OCC(O)CN(N=O)C(C)C)cc1 (stereo not shown)", "target or system": "Salmonella typhimurium", "test": "Ames test", "test system": "TA100", "conditions": "500 µg/plate, 30 % hamster S9", "how to read": "reference: solvent control", "measurement": "revertant fold increase", "value": "2 fold"}
{"Structure (SMILES)": "O=C1C2CC3CC1CC(C(=O)N1CCN(c4ccc([N+](=O)[O-])c5ncccc45)CC1)(C3)C2", "target or system": "Salmonella typhimurium", "test": "Ames test", "test system": "TA98", "conditions": "0.13 µg/well, without S9", "how to read": "reference: vehicle", "measurement": "revertant fold increase", "value": 1.2}
{"Structure (SMILES)": "N#C[C@@H]1CC(F)(F)CN1C(=O)CNC(=O)c1ccnc2c(NC(=O)[C@H](CCCCNC(=O)CCOCCOCCOCCOCCOCCOCCNC(=O)CN3CCN(CC(=O)[O-])CCN(CC(=O)[O-])CCN(CC(=O)[O-])CC3)NC(=O)CCCc3ccc(I)cc3)cccc12.[177Lu+3]", "target or system": "U-87 MG tumour model", "test system": "host not given, heart", "conditions": "96 h, tumour-bearing", "measurement": "tracer uptake", "value": "0.09 %ID/g"}
{"Structure (SMILES)": "Cc1c(Cc2cccc(OC(C)C(=O)O)c2)c2ccc(C(=O)N[C@@H](C)c3cccc(C(C)C)c3)cc2n1C (stereo partly shown)", "target or system": "PPARG", "test": "ligand displacement, TR-FRET", "measurement": "IC50", "value": "6 nM"}
{"Structure (SMILES)": "N#C[C@@H]1CC(F)(F)CN1C(=O)CNC(=O)c1ccnc2c(NC(=O)CCOCCOCCOCCOCCOCCOCCNC(=O)[C@H](CCCCNC(=O)CN3CCN(CC(=O)[O-])CCN(CC(=O)[O-])CCN(CC(=O)[O-])CC3)NC(=O)CCCc3ccc(I)cc3)cccc12.[177Lu+3]", "target or system": "U-87 MG tumour model", "test system": "host not given, tumour", "conditions": "24 h, tumour-bearing", "measurement": "tracer uptake", "value": "3.5 %ID/g"}
{"Structure (SMILES)": "O=C1NC2(CC2)COc2ncc(F)cc2[C@H]2COCCN2c2ccn3ncc1c3n2", "target or system": "Salmonella typhimurium", "test": "Ames test", "test system": "TA97a", "conditions": "5000 µg/plate, 48 h, with: without S9", "measurement": "revertant colonies", "value": "60 ± 9 revertants/plate"}
{"Structure (SMILES)": "COc1cccc(OC)c1-c1cc(C(=O)NC2(C(=O)O)C3CC4CC(C3)CC2C4)nn1-c1ccc(C(=O)N(C)CCCN(C)C(=O)[C@H](CCCCNC(=O)[C@H](CC(C)C)NC(=O)C2OC2C(=O)O)NC(=O)CN2CCN(CC(=O)[O-])CCN(CC(=O)[O-])CCN(CC(=O)[O-])CC2)cc1C(C)C.[177Lu+3] (mixture of isomers)", "target or system": "HT-29 tumour model", "test system": "host not given, pancreas", "conditions": "72 h, tumour-bearing", "measurement": "tracer uptake", "value": "0.07 %ID/g"}
{"Structure (SMILES)": "C=C(NC(=O)c1csc(-c2nc3c(cc2O)-c2nc(cs2)C(=O)NC(C(C)O)C(=O)NC(=C(C)OC)c2nc(cs2)C(=O)NC2c4nc(cs4)C(=O)NC(COC(=O)c4c5c6c(cccc6n4O)COC(=O)C(OC4CC(C)(O)C(N(C)C)C(C)O4)C2OC5)c2nc-3cs2)n1)C(N)=O (stereo not shown)", "test system": "ICR mice, Streptococcus pneumoniae ATCC 49169 infected, immunocompromised, blood", "conditions": "intravenous, 32 mg/kg twice daily", "measurement": "AUC(0-t)", "value": "1.2 µM·h"}
{"Structure (SMILES)": "COC1CN([C@H]2CC[C@H]([C@@]3(C)Oc4c(Cl)cc(C(=O)NCc5c(SC)cc(C)[nH]c5=O)c(C)c4O3)CC2)C1", "test": "RNA-seq, measured: CNRIP1", "test system": "human, whole blood", "conditions": "dose not given, 24 h", "how to read": "reference: pretreatment baseline", "measurement": "log2 fold change", "value": 1.17}
{"note": "Repeated from above:"}
{"Structure (SMILES)": "O=C(Nc1cnccc1-c1ccc([18F])cc1)c1ccnc(NC(=O)C2CC2)c1", "test system": "FVB/NJ mouse, both sexes, brain", "conditions": "intravenous, 15 min", "measurement": "SUV", "value": 0.24}
{"Structure (SMILES)": "COC1CN([C@H]2CC[C@H]([C@@]3(C)Oc4c(Cl)cc(C(=O)NCc5c(SC)cc(C)[nH]c5=O)c(C)c4O3)CC2)C1", "test": "RNA-seq, measured: CNRIP1", "test system": "human, whole blood", "conditions": "dose not given, 24 h", "how to read": "reference: pretreatment baseline", "measurement": "log2 fold change", "value": 1.17}
